Measurements gathered from unrelated publications.
Every numbered part comes from another study and shows a few of its results, in no order.
Chain of UniProt P42680 (whole entry, looked up): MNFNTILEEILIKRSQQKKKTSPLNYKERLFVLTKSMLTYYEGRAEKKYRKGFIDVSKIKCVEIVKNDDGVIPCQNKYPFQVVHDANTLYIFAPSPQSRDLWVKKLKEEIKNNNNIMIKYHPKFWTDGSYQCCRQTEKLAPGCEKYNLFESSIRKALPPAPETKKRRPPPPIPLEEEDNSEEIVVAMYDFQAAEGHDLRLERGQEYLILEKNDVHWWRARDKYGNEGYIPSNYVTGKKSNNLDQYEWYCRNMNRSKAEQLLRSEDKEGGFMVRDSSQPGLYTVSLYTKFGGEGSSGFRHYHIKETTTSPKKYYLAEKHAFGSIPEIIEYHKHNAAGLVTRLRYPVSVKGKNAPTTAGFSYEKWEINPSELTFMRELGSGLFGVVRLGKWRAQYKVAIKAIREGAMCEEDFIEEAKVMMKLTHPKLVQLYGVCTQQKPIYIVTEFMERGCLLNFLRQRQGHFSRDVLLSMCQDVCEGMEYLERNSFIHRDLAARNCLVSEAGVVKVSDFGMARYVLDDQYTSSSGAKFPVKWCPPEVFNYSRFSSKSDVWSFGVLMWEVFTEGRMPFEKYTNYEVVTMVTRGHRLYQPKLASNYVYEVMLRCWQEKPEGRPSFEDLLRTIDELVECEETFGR
Chain of UniProt P48730 (whole entry, looked up): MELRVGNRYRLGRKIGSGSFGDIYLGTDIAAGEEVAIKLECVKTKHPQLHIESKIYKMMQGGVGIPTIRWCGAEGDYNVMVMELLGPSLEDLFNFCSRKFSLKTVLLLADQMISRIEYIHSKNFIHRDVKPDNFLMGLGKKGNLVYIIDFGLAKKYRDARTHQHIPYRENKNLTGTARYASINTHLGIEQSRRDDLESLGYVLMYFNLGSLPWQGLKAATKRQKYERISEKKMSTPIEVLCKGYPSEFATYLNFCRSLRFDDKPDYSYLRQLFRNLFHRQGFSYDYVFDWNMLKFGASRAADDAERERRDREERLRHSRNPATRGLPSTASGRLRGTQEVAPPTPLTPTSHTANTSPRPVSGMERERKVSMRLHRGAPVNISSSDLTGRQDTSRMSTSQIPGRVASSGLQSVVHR
Chain of UniProt Q9Y572 (whole entry, looked up): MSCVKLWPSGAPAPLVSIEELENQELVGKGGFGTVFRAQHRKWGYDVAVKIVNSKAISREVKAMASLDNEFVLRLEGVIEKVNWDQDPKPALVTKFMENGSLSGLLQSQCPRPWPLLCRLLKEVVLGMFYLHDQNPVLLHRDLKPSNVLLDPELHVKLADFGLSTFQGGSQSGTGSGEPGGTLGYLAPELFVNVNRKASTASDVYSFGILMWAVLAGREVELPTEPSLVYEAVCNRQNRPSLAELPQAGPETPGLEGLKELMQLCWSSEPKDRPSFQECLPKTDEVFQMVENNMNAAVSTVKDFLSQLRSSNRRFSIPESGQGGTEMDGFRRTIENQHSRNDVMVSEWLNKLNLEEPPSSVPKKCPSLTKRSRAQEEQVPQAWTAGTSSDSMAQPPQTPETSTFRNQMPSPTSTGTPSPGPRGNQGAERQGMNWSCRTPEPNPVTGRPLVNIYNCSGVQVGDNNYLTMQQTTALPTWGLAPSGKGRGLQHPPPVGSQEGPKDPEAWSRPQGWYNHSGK
Chain of UniProt Q12866 (whole entry, looked up): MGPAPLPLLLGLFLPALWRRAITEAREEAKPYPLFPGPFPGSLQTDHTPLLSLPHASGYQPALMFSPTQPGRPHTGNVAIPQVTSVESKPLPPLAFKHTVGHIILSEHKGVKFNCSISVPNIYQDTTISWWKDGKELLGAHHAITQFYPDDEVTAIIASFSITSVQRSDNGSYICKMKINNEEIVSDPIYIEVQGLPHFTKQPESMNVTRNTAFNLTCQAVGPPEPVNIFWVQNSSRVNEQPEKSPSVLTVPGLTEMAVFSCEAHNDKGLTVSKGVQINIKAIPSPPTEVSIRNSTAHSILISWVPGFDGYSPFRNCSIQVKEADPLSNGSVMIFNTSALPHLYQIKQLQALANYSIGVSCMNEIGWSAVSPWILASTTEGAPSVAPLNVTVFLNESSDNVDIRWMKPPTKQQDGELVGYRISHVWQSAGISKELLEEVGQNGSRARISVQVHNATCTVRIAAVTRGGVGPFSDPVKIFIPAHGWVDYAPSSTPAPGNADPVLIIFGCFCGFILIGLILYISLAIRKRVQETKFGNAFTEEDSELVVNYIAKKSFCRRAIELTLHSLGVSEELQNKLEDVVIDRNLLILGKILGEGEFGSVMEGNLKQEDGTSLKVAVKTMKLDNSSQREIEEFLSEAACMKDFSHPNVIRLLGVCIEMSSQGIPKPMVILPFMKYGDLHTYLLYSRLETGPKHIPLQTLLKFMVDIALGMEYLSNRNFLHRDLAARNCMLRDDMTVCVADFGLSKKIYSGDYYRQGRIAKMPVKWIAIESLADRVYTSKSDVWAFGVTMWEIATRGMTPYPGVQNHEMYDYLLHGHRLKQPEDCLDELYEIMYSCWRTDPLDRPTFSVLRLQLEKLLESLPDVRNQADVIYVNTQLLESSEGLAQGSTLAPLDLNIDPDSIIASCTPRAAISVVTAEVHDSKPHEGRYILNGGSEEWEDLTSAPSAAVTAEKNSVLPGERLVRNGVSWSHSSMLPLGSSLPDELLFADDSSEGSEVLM
Chain of UniProt P17948 (whole entry, looked up): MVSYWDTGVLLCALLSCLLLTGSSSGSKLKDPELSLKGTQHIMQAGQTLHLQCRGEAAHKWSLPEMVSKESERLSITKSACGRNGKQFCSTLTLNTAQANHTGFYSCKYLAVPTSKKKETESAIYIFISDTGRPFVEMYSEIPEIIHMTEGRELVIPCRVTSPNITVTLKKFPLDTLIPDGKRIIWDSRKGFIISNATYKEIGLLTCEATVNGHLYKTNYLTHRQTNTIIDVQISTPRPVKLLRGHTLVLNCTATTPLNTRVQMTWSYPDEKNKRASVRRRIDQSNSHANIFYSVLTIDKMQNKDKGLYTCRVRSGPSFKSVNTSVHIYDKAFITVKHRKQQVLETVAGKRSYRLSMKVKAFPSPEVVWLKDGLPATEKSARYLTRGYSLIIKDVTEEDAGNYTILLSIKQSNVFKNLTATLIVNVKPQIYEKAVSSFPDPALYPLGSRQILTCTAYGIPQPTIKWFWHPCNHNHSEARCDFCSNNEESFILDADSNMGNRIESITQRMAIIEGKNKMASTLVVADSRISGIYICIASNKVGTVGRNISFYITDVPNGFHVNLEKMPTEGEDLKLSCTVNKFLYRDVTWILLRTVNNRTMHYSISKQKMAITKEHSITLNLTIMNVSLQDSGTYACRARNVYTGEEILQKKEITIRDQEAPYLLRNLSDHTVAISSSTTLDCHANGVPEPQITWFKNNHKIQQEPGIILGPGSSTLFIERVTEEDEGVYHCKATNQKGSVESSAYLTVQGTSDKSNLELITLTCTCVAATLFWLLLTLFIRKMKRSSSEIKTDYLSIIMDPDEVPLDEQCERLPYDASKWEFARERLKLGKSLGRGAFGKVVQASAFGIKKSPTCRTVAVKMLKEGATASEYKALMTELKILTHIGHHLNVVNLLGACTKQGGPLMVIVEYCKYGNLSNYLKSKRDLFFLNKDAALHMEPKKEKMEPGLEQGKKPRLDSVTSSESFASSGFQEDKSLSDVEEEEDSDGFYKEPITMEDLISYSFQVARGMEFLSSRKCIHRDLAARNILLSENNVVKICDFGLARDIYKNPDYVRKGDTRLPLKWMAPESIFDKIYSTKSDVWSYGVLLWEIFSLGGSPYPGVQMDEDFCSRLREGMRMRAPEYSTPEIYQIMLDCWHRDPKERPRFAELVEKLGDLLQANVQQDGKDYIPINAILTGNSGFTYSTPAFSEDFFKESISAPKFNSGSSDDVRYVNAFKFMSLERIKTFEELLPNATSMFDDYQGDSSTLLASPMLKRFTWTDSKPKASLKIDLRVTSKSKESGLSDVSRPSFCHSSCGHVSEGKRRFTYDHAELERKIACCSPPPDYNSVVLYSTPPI
Chain of UniProt Q14012 (whole entry, looked up): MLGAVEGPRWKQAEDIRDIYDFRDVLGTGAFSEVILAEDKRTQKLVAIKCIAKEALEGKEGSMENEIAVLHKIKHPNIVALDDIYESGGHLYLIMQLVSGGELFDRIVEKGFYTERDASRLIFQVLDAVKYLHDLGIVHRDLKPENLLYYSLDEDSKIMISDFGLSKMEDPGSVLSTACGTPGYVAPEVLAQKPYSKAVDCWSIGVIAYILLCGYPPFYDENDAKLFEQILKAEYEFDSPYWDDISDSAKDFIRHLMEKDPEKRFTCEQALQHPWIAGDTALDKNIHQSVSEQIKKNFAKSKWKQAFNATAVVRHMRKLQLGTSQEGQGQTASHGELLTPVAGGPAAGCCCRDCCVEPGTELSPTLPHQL
Chain of UniProt Q9NQU5 (whole entry, looked up): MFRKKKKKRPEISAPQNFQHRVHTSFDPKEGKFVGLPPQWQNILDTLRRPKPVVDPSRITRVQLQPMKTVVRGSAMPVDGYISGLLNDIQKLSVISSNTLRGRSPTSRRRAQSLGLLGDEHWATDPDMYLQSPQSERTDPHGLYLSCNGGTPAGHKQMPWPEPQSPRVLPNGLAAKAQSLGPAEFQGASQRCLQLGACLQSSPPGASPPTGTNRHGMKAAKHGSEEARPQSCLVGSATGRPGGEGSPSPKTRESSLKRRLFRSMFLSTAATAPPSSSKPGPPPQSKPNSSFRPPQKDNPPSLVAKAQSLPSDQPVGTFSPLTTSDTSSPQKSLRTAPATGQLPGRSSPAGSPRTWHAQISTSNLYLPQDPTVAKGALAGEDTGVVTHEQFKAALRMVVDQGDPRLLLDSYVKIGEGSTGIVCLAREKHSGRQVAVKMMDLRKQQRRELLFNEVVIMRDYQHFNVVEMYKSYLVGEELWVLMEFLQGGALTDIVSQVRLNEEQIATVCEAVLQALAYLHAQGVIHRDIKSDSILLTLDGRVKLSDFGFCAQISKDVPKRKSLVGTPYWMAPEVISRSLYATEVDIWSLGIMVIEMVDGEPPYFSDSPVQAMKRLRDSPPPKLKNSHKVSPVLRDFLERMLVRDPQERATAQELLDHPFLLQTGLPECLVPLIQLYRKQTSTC

Study 1 — method: competition with immobilised ligand; tested at: 1 µM
Structure (SMILES): O=C(Nc1cnc(Oc2ccc(F)cc2)nc1)N1CCc2ncccc2[C@@H]1c1ccc(F)cc1
| target | test | remaining binding |
| --- | --- | --- |
| PIK3CB (Homo sapiens, UniProt P42338) | cell-free assay | 84% |
| FLT4 (Homo sapiens, UniProt P35916) | cell-free assay | 96% |
| PTK6 (Homo sapiens, UniProt Q13882) | cell-free assay | 98% |
| CDK11B (Homo sapiens, UniProt P21127) | cell-free assay | 94% |
| PIM1 (Homo sapiens, UniProt P11309) | cell-free assay | 91% |
| TEC (Homo sapiens, UniProt P42680) | binding | 89% |
| PLK3 (Homo sapiens, UniProt Q9H4B4) | cell-free assay | 87% |
| MERTK (Homo sapiens, UniProt Q12866) | cell-free assay | 100% |
| PIK3CA (Homo sapiens, UniProt P42336, H1047L) | cell-free assay | 92% |
| CSF1R (Homo sapiens, UniProt P07333) | cell-free assay | 78% |
| BRAF (Homo sapiens, UniProt P15056) | cell-free assay | 74% |
| DAPK2 (Homo sapiens, UniProt Q9UIK4) | cell-free assay | 91% |
| SRPK3 (Homo sapiens, UniProt Q9UPE1) | cell-free assay | 100% |
| CDC42BPA (Homo sapiens, UniProt Q5VT25) | cell-free assay | 96% |
| CDK4 (Homo sapiens, UniProt P11802) | cell-free assay | 100% |
| BUB1 (Homo sapiens, UniProt O43683) | cell-free assay | 92% |
| MAP3K5 (Homo sapiens, UniProt Q99683) | cell-free assay | 84% |
| ACVR2B (Homo sapiens, UniProt Q13705) | cell-free assay | 85% |
| LIM domain kinase 1 (LIMK1, Homo sapiens, UniProt P53667) | cell-free assay | 99% |
| PTK2B (Homo sapiens, UniProt Q14289) | cell-free assay | 100% |

Study 2 — read-out: enzyme activity; mode: inhibitor; tested at: 0.5 µM; reference: control
SMILES: CC(C)(C)c1nc2c3cc[nH]c(=O)c3c3cc(F)ccc3c2[nH]1
| target | remaining activity [%] |
| --- | --- |
| TYRO3 (Homo sapiens, UniProt Q06418) | 90.3 |
| TEC (Homo sapiens, UniProt P42680) | 106 |
| CSNK1D (Homo sapiens, UniProt P48730) | 89.1 |
| EPHA2 (Homo sapiens, UniProt P29317) | 98.5 |
| CLK1 (Homo sapiens, UniProt P49759) | 81.6 |
| CAMKK1 (Homo sapiens, UniProt Q8N5S9) | 81.4 |
| Cyclin-dependent kinase 2, with cyclin E (CDK2, Homo sapiens, UniProt P24941) | 87.5 |
| PAK6 (Homo sapiens, UniProt Q9NQU5) | 90.9 |
| JAK1 (Homo sapiens, UniProt P23458) | 2.54 |
| FLT1 (Homo sapiens, UniProt P17948) | 92.3 |
| IGF1R (Homo sapiens, UniProt P08069) | 91.3 |
| PRKCZ (Homo sapiens, UniProt Q05513) | 93.2 |
| CAMK1 (Homo sapiens, UniProt Q14012) | 79.3 |
| SRPK1 (Homo sapiens, UniProt Q96SB4) | 115 |
| MAP3K20 (Homo sapiens, UniProt Q9NYL2) | 78.1 |
| CSNK1E (Homo sapiens, UniProt P49674) | 85.6 |
| CLK2 (Homo sapiens, UniProt P49760) | 93.9 |
| SGK2 (Homo sapiens, UniProt Q9HBY8) | 84.4 |
| PRKCQ (Homo sapiens, UniProt Q04759) | 66.8 |

Further values, each from its own experiment
| SMILES | target or system | test | test system | setting | endpoint | result |
| --- | --- | --- | --- | --- | --- | --- |
| CC(C)n1cnc(-c2ccc(F)cc2)c1-c1ncc(C(=O)Nc2ccc(N3CCN(C)CC3)cc2)[nH]1 |  |  | human, idiopathic pulmonary fibrosis | 30 mg once daily, trial, treatment-emergent | patients with ECG high voltage | 0% |
| CC(C)S(=O)(=O)c1ccc2nccc(Nc3ccc4sc(C5CCCC5)nc4c3)c2c1 | RIPK3 (Homo sapiens, UniProt Q9Y572) | kinase activity, inhibitor, ADP-Glo |  | 0.137 nM, 1 h | inhibition | 18.1% |

Excerpt of the above (study 1):
| target | test | remaining binding |
| --- | --- | --- |
| FLT4 (Homo sapiens, UniProt P35916) | cell-free assay | 96% |
| PTK2B (Homo sapiens, UniProt Q14289) | cell-free assay | 100% |
| SRPK3 (Homo sapiens, UniProt Q9UPE1) | cell-free assay | 100% |
| BRAF (Homo sapiens, UniProt P15056) | cell-free assay | 74% |
